# Assay results of several laboratories.
# Values joined by “and” are separate records of one study, mostly repeats; a detail may differ. ± marks the error that the study gave.
# TAF1L BD2: Transcription initiation factor TFIID subunit 1-like, BD2 (TAF1L, Homo sapiens, UniProt Q8IZX4)
# CSNK1E: Casein kinase I isoform epsilon (CSNK1E, Homo sapiens, UniProt P49674)
# Sequence of UniProt P49674 (whole entry, looked up): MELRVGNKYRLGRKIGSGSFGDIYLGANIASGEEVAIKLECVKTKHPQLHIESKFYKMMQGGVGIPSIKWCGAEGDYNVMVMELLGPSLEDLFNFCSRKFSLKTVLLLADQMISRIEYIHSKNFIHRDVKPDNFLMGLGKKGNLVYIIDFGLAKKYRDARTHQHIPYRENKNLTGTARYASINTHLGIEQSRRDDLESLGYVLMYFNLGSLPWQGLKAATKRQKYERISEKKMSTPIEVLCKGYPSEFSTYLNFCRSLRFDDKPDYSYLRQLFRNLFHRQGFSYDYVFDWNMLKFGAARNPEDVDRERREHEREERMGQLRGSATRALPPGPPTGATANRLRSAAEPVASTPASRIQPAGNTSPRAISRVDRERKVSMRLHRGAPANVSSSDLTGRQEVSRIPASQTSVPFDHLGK
# Lysine--tRNA ligase, cytoplasmic: Lysine--tRNA ligase, cytoplasmic (Arabidopsis thaliana, UniProt Q9ZPI1)
# Sequence of UniProt Q9ZPI1 (whole entry, looked up): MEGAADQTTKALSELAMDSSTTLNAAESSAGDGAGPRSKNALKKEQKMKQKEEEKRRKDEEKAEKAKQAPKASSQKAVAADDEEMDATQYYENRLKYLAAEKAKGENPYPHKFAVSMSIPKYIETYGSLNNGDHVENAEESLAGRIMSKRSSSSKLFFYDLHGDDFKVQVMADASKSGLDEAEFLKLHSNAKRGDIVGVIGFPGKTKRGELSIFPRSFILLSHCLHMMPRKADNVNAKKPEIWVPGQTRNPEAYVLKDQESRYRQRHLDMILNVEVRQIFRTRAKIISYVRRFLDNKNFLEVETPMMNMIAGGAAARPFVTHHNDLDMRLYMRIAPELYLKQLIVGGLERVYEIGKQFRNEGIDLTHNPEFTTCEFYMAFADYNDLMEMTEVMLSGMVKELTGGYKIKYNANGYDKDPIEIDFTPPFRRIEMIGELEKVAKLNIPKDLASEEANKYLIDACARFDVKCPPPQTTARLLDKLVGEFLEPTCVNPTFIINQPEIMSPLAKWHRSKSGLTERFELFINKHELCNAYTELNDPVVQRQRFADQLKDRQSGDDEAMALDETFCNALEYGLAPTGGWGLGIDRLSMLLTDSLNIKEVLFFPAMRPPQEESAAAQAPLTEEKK
# CDK6 with cyclin D1: Cyclin-dependent kinase 6, with cyclin D1 (CDK6, Homo sapiens, UniProt Q00534)
# Sequence of UniProt Q00534 (whole entry, looked up): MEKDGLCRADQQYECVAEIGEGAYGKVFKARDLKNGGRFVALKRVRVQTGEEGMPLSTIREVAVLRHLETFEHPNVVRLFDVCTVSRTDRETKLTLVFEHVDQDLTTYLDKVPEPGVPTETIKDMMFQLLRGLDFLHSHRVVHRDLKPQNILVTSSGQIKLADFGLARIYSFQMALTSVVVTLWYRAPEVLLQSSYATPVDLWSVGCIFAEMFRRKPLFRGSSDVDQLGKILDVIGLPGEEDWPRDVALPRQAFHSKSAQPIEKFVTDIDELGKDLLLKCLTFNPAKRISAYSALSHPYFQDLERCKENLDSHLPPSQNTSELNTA
# MCL1: Induced myeloid leukemia cell differentiation protein Mcl-1 (MCL1, Homo sapiens, UniProt Q07820)
# Sequence of UniProt Q07820 (whole entry, looked up): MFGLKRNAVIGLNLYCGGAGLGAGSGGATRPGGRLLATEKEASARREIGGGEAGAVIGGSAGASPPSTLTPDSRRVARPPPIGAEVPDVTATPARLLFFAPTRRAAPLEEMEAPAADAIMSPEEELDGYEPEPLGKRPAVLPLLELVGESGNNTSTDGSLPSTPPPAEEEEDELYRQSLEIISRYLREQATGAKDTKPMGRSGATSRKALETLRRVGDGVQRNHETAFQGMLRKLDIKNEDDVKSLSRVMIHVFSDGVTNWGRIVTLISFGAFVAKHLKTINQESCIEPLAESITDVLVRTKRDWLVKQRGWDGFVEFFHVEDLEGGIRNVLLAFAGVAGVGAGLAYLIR
# NTRK3: NT-3 growth factor receptor (NTRK3, Homo sapiens, UniProt Q16288)
# Sequence of UniProt Q16288 (whole entry, looked up): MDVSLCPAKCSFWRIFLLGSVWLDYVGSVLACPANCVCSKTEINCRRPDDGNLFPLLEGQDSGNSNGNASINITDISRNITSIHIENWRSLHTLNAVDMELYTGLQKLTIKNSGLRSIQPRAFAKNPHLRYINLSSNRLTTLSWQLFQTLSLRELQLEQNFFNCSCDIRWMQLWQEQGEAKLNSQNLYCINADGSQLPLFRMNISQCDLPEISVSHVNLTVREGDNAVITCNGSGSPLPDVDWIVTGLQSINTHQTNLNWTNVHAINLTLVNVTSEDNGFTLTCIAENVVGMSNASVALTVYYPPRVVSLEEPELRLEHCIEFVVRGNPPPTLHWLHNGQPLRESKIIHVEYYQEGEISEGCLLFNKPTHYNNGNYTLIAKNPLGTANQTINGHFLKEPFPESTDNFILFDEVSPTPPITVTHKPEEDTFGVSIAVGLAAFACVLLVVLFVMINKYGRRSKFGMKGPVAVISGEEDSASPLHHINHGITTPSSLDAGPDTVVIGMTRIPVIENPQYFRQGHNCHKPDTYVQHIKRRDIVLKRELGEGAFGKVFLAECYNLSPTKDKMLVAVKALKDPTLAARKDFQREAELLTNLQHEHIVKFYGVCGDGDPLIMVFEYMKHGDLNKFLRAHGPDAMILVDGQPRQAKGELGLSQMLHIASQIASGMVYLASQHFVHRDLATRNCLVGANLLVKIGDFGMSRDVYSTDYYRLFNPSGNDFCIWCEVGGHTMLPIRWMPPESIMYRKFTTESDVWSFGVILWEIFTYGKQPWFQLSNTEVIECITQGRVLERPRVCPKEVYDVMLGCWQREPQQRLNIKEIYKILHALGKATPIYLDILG
# SIRT5: NAD-dependent protein deacylase sirtuin-5, mitochondrial (SIRT5, Homo sapiens, UniProt Q9NXA8)
# Sequence of UniProt Q9NXA8 (whole entry, looked up): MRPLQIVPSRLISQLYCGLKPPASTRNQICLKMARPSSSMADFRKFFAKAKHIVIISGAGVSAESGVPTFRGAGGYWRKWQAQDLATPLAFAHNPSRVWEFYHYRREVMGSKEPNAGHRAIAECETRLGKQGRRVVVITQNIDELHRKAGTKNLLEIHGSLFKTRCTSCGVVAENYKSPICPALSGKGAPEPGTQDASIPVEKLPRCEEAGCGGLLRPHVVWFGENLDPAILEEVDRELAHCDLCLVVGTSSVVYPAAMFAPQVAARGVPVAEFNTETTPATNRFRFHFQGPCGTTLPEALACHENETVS
# 60 kDa heat shock protein, mitochondrial with HSP10: 60 kDa heat shock protein, mitochondrial, with HSP10 (Homo sapiens, UniProt P10809)
# Sequence of UniProt P10809 (whole entry, looked up): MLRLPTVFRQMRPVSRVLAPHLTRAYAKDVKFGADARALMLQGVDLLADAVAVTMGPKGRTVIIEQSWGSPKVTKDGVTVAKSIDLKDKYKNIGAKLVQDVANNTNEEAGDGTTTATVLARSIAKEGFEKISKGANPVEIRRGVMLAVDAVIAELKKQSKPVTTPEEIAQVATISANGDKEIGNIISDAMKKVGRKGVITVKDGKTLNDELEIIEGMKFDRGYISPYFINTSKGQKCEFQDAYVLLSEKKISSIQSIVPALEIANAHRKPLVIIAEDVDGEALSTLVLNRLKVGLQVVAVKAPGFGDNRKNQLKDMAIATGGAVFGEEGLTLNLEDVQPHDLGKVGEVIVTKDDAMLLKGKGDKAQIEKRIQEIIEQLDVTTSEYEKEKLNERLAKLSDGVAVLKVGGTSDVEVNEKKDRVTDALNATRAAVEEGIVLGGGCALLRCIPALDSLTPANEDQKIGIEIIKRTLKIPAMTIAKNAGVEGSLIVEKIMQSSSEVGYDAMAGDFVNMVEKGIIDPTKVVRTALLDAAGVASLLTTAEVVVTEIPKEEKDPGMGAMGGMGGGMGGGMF
# DRD2: D(2) dopamine receptor (DRD2, Homo sapiens, UniProt P14416)
# Sequence of UniProt P14416 (whole entry, looked up): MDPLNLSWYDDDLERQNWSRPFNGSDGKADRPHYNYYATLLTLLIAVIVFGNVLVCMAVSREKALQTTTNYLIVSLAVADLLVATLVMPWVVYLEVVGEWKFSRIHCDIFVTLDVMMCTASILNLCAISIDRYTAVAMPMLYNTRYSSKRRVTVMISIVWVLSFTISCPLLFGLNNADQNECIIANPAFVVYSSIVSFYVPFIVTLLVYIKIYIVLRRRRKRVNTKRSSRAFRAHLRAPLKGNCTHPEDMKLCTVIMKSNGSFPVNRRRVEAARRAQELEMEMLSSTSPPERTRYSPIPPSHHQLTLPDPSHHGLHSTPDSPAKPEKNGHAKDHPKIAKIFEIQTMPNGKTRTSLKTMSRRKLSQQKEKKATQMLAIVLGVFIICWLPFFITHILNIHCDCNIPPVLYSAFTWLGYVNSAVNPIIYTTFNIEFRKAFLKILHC
# DNA polymerase catalytic subunit: DNA polymerase catalytic subunit (Human cytomegalovirus, UniProt P08546)
# Sequence of UniProt Q99572 (whole entry, unmodified, looked up): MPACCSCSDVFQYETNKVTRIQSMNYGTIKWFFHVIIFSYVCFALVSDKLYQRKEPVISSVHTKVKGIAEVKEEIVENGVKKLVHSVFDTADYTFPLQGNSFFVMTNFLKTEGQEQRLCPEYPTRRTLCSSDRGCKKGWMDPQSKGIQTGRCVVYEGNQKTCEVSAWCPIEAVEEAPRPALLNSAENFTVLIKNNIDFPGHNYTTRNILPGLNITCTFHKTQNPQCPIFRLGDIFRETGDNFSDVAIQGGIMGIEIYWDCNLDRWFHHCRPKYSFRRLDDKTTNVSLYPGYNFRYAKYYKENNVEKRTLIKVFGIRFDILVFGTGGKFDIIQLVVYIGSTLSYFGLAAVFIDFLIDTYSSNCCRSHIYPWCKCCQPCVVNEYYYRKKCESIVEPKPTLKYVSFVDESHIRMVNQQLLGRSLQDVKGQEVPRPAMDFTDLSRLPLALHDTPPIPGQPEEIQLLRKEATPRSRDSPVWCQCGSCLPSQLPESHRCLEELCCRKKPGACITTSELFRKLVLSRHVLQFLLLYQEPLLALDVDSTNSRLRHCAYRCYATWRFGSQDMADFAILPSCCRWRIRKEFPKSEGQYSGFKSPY
# Sequence of UniProt Q02127 (whole entry, looked up): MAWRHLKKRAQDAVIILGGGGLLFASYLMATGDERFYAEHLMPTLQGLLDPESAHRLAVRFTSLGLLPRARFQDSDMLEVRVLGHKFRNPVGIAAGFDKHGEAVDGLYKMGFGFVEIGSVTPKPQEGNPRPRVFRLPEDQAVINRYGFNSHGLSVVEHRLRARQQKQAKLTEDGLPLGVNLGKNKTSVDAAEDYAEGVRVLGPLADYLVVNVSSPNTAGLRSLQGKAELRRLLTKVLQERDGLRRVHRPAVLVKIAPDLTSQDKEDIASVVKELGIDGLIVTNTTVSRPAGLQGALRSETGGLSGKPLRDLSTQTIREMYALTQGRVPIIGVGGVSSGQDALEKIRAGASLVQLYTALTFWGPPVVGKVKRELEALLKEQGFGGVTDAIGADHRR
Structure (SMILES),target,test,test system,setting,IC50
Cc1cc2c(cc1N1C(=O)c3cccc4c(N5CCC(O)CC5)ccc(c34)C1=O)n(C)c(=O)n2C,TAF1L BD2,HTRF,,GST-tagged protein,106 nM
CCCCCCCCCCCO,"uncharacterized protein (Spodoptera exigua, UniProt F1CEY0)","binding, fluorescence competitive binding",,with: 1-NPN 2.0 µM,4990 nM
O=C1NC(=O)C2(N1)c1ccccc1-c1ccccc12,"GABA-A receptor alpha-1/beta-3 (GABRA1/GABRB3, Homo sapiens, UniProt P14867+P28472)",,,α1β3 receptor,8400 nM
O=[N+]([O-])c1cccc(Cl)c1-c1nc(-c2ccc(F)cc2)c(-c2ccncc2)[nH]1,CSNK1E,inhibitor,,,81.3 ± 0.8 nM
CN(C)c1cc2c(cc1N1C(=O)c3cccc4cccc(c34)C1=O)n(C)c(=O)n2C,TAF1L BD2,HTRF,,GST-tagged protein,263 nM
Fc1ccc(-c2nc(-c3ccccc3)[nH]c2-c2ccncc2)cc1,CSNK1E,inhibitor,,,681 ± 123 nM
Cc1cc(Nc2ccc(SC(F)(F)F)cc2)n2ncnc2n1,"DHODH (Homo sapiens, UniProt Q02127)","enzyme activity, inhibitor",,,> 50000 nM
C[C@H]1CN(C)CCN1c1nccc(-c2noc([C@@]3(C)CCCc4sc(N)c(C#N)c43)n2)n1,"GTPase KRas, with SOS1 (KRAS, Homo sapiens, UniProt P01116)","KRAS wild type-SOS1 interaction, inhibitor, AlphaScreen",,geometric mean,83 nM
Nc1nsc(C(=O)NCc2cccc(Cl)c2Cl)c1Cl,"Lysine--tRNA ligase, cytoplasmic","enzyme activity, inhibitor",,,> 100000 nM
CN(C)C(=O)c1cc2cnc(Nc3cccc(-c4cccc5c(=O)cc(N6CCOCC6)oc45)c3)nc2n1C1CCCC1,CDK6 with cyclin D1,"inhibitor, HotSpot radiometric kinase",,"with: 10 µM ATP, cyclin D1",3380 nM
COc1ccccc1-c1nccc(COc2ccccc2C[C@@H](Nc2ncnc3sc(-c4ccc(F)cc4)c(-c4ccc(OCCN5CCN(C)CC5)c(Cl)c4C)c23)C(=O)O)n1,MCL1,"binding, quench",,,0.303 nM
CCc1cc2c(cc1N1CCC(N3CCOCC3)CC1)C(C)(C)c1[nH]c3cc(C#N)ccc3c1C2=O,NTRK3,"enzyme activity, inhibitor",,with: 1 mM ATP,> 765 nM
COc1ccc(S(=O)(=O)N(CC(=O)NO)CC(C)C)cc1,"Collagenase 3 (MMP13, Homo sapiens, UniProt P45452)",,,,454 ± 42 nM
Cn1cnc(Cn2ccc3ccc(CNCc4[nH]c5ccccc5c4[C@H]4NC(=O)c5ccc(O)cc54)cc32)c1,"GTPase KRas, GppNHp; with RAF1 RBD (KRAS, Homo sapiens, UniProt P01116, G13D)",HTRF,,,25900 ± 14100 nM
Nc1nsc(C(=O)NC2CCC3(CC2)CC3(F)F)c1Cl (centres unmarked),"Lysine--tRNA ligase, cytoplasmic","enzyme activity, inhibitor",,,> 100000 nM
O=C(CCNC(=S)NCCCC[C@H](NS(=O)(=O)c1cccc(F)c1)C(=O)N[C@@H](Cc1c[nH]c2ccccc12)C(=O)NC1CCC1)NO,SIRT5,"enzyme activity, inhibitor",,,1300 ± 100 nM
CC1(C)CCC(CNC(=O)c2snc(N)c2Cl)CC1,"Lysine--tRNA ligase, cytoplasmic","enzyme activity, inhibitor",,,3160 nM
Cn1ncc2c(Cl)c(C(=O)NCc3ccccc3)cnc21,"60 kDa heat shock protein, mitochondrial with HSP10",ATPase activity,,"30 min, with: HSP10",> 250000 nM
Cc1cc2c(cc1N1C(=O)c3cccc4c(CCCCO)ccc(c34)C1=O)n(C)c(=O)n2C,TAF1L BD2,HTRF,,GST-tagged protein,43.7 nM
O=C(O)CN1C(=O)Cc2c([nH]c3ccc(Br)cc23)-c2ccc(Cl)cc21,"Trypanothione synthetase (Trypanosoma cruzi, UniProt Q9GT49)",enzyme activity,,,~30000 nM
Cc1[nH]c(C)c(S(=O)(=O)Nc2ccc(C(F)(F)F)c(Cl)c2)c1C(=O)N1CCC(O)C1 (centres unmarked),DRD2,,,,> 100000 nM
CN1CCN(c2ccc(Nc3ncc4cc(C#N)c(=O)n(C5CCCC5)c4n3)cc2)CC1,"MAP3K3 (Homo sapiens, UniProt Q99759)",,,,> 10000 nM
COc1cc(C(=O)NS(=O)(=O)c2ccccc2C)ccc1Cc1cn(C)c2ccc(NC(=O)OC3CCCC3)cc12,"LRRC8A/LRRC8C (Homo sapiens, UniProt Q8IWT6+Q8TDW0, L134K/L136K)","ion current, inhibitor, whole-cell patch clamp",HCT116 LRRC8-/- transfected,at -100 mV,3900 nM
CN(C)CCCOc1ccc(-c2cc(NCCCn3cccn3)nc(S(C)(=O)=O)n2)cc1,"CECR2 (Homo sapiens, UniProt Q9BXF3)","binding, NanoBRET tracer displacement",HEK293T,,500 ± 100 nM
COc1ccc(-c2cc(OCC(=O)N(C)Cc3cccnc3C)nc(-n3nc(C)cc3C)n2)cc1,"LNPEP (Homo sapiens, UniProt Q9UIQ6)","9mer peptide trimming, HPLC",,second phase biphasic,~100000 nM
C[C@H]1Oc2cc(cnc2N)-c2c(nn(C)c2C#N)CN(C)C(=O)c2ccc(F)cc21,NTRK3,"enzyme activity, inhibitor",,,220 nM
CN1CCN(c2cnc3c(cc(C(=O)NCc4ccc(Cl)cc4)c(=O)n3CC(=O)N3CC(C)(F)C3)n2)C1=O,DNA polymerase catalytic subunit,enzyme activity,,single determination,290 nM
CCc1ccc(/C=N/n2c(C)nc3ccc(C)cc3c2=O)s1,"XDH (Bos taurus, UniProt P80457)","enzyme activity, inhibitor",,,68400 ± 1350 nM
CC1(F)CN(C(=O)Cn2c(=O)c(C(=O)NCc3ccc(Cl)cc3)cc3nc(N4CCN(CC(=O)O)C4=O)cnc32)C1,DNA polymerase catalytic subunit,enzyme activity,,at least duplicate,400 nM
CC(C)(/C=C(\C#N)C(=O)N1CCC[C@@H](n2nc(-c3ccc(Oc4ccccc4)cc3F)c3c(N)ncnc32)C1)N1CCN(C2COC2)CC1,"Phosphatidylinositol 4,5-bisphosphate 3-kinase catalytic subunit delta isoform, with p85alpha (PIK3CD, Homo sapiens, UniProt O00329)",,,,2210 nM
Cc1c(C(=O)N2CCC(F)(F)C2)c(S(=O)(=O)Nc2ccc(C(F)(F)F)c(Cl)c2)c(C)n1C,DRD2,,,,> 100000 nM
COc1ccccc1-c1nccc(COc2ccccc2C[C@@H](Nc2ncnc3oc(-c4ccc(F)cc4)c(-c4ccc(OCCN5CCN(C)CC5)c(Cl)c4C)c23)C(=O)O)n1,MCL1,"binding, quench",,,0.61 nM
Cc1[nH]cc(C(=O)N2CCC(F)(F)C2)c1S(=O)(=O)Nc1ccc(C(F)(F)F)c(Cl)c1,DRD2,,,,> 100000 nM
CN(C)C(=O)c1cc2cnc(Nc3ccc4c(=O)cc(N5CCNCC5)oc4c3)nc2n1C1CCCC1,CDK6 with cyclin D1,"inhibitor, HotSpot radiometric kinase",,"with: 10 µM ATP, cyclin D1",11 nM
Cc1ccc2[nH]nc(-c3nnc(Nc4ccc(F)cc4)s3)c2c1,α-glucosidase,"enzyme activity, inhibitor",,"pH 6.8, with: p-nitrophenyl-α-D-glucopyranoside",2130 ± 1130 nM
O=C(O)Cc1cscc1Nc1c(Cl)cccc1Cl,"PTGS2 (Homo sapiens, UniProt P35354)",inhibitor,,,30 nM
O=C(Nc1ccccc1OS(=O)(=O)Cc1ccccc1)c1ccc2ncccc2c1,"P2X purinoceptor 7 (P2RX7, Homo sapiens, UniProt Q99572)","calcium mobilization, antagonist",MCF7 transfected with P2RX7,with: 100 µM BzATP,8400 nM and 8390 nM
Fc1ccc(-c2nc(-c3cccnc3)[nH]c2-c2ccncc2)cc1,CSNK1E,inhibitor,,,581 ± 118 nM
Cc1[nH]c(C)c(S(=O)(=O)Nc2ccc(C(F)(F)F)c(Cl)c2)c1C(=O)N1CCC(=O)C1,DRD2,,,,> 100000 nM
CC1=NOC(CNC(=O)c2cnc3c(c(C)nn3C)c2Cl)C1 (centres unmarked),"60 kDa heat shock protein, mitochondrial with HSP10",HSP60/10-mediated MDH refolding,,"5 min, preincubation before ATP, with: denatured malate dehydrogenase",> 100000 nM
CN(C)C(=O)c1cc2cnc(Nc3ccc(-c4cccc5c(=O)cc(N6CCOCC6)oc45)c(F)c3)nc2n1C1CCCC1,CDK6 with cyclin D1,"inhibitor, HotSpot radiometric kinase",,"with: 10 µM ATP, cyclin D1",228 nM
COc1cc2nccc(Oc3ccc(NC(=O)c4cc5c(n(-c6ccccc6)c4=O)CCCC5=O)nc3)c2cc1OC,NTRK3,"cell viability, CellTiter-Glo",Ba/F3 expressing recombinant kinase,48 h,> 100 nM
O=C(CCC(=O)N[C@@H](CCCCNC(=S)NCCc1cc(O)n[nH]1)C(=O)N[C@@H](Cc1c[nH]c2ccccc12)C(=O)NC1CCC1)NCCOCCOCCCCCCCl,SIRT5,"enzyme activity, inhibitor",,,46000 ± 2000 nM
C=CC(=O)Nc1cc(Nc2nccc(-c3cn(C)c4ccccc34)n2)c(OC)cc1N(C)CCN(C)C,"SLC22A8 (Homo sapiens, UniProt Q8TCC7)",inhibitor,,,no inhibition

# Excerpt of the above:
Structure (SMILES),target,test,test system,setting,IC50
O=[N+]([O-])c1cccc(Cl)c1-c1nc(-c2ccc(F)cc2)c(-c2ccncc2)[nH]1,CSNK1E,inhibitor,,,81.3 ± 0.8 nM
CN(C)c1cc2c(cc1N1C(=O)c3cccc4cccc(c34)C1=O)n(C)c(=O)n2C,TAF1L BD2,HTRF,,GST-tagged protein,263 nM
Fc1ccc(-c2nc(-c3ccccc3)[nH]c2-c2ccncc2)cc1,CSNK1E,inhibitor,,,681 ± 123 nM
Cc1cc(Nc2ccc(SC(F)(F)F)cc2)n2ncnc2n1,"DHODH (Homo sapiens, UniProt Q02127)","enzyme activity, inhibitor",,,> 50000 nM
C[C@H]1CN(C)CCN1c1nccc(-c2noc([C@@]3(C)CCCc4sc(N)c(C#N)c43)n2)n1,"GTPase KRas, with SOS1 (KRAS, Homo sapiens, UniProt P01116)","KRAS wild type-SOS1 interaction, inhibitor, AlphaScreen",,geometric mean,83 nM
Nc1nsc(C(=O)NCc2cccc(Cl)c2Cl)c1Cl,"Lysine--tRNA ligase, cytoplasmic","enzyme activity, inhibitor",,,> 100000 nM
